Assay results of several laboratories.
Lines come from different studies, so protocols differ. Several values in a cell are separate wells, animals, samples, runs or records. ± marks the error that the study gave.
Sequence of UniProt P20813 (whole entry, looked up): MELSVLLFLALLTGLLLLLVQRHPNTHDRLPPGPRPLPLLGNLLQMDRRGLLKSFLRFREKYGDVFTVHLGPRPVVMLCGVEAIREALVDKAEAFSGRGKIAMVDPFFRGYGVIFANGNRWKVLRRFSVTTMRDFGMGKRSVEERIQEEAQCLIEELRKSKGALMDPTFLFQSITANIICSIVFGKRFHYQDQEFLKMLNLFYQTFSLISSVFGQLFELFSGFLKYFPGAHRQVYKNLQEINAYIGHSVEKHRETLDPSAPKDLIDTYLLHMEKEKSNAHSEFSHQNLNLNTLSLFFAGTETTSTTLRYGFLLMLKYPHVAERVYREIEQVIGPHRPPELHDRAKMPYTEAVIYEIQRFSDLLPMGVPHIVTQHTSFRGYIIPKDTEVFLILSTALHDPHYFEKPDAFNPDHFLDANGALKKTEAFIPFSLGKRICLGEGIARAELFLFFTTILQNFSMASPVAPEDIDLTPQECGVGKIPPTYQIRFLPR
Sequence of UniProt Q9NYY3 (whole entry, looked up): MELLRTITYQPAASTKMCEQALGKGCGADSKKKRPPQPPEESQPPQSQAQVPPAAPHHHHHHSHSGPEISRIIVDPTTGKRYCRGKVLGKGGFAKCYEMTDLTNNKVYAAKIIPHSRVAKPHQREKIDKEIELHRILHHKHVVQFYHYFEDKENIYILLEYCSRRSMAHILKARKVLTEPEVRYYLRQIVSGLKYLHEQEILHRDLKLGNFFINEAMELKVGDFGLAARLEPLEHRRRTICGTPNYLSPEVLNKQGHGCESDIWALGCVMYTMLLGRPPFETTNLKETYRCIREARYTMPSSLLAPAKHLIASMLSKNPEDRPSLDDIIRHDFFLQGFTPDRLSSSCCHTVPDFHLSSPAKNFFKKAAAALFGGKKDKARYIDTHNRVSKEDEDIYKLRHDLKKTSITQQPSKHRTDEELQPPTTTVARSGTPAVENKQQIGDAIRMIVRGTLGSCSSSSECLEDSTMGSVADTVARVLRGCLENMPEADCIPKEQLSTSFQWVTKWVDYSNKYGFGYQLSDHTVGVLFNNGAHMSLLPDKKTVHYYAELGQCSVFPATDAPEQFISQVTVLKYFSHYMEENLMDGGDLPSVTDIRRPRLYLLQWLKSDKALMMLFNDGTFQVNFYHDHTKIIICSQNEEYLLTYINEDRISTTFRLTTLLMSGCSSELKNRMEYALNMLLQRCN

Compound	target or system	test	system	conditions	scale	measurement	result
O[C@@H](COc1ccc2cc(Br)ccc2c1)Cn1ccnc1	Trypanosoma cruzi	reporter mRNA translation, inhibitor, measured: Renilla luciferase mRNA	cell-free extract	concentration not given, test 3	relative to: positive over negative control	translation activity	67.1%
CC(C)C[C@@H]1NC(=O)[C@H](Cc2ccc(O)cc2)NC(=O)[C@H](CCCNC(=N)N)NC(=O)[C@H](C)NC(=O)[C@H]([C@@H](C)O)NC(=O)[C@H](Cc2ccc(O)cc2)NC(=O)CSC[C@@H](C(N)=O)NC(=O)[C@H](CCCCN)NC(=O)[C@H](Cc2ccc(O)cc2)NC(=O)[C@H](Cc2c[nH]cn2)NC(=O)[C@H](CC(C)C)NC(=O)[C@H]([C@@H](C)O)NC(=O)CNC(=O)[C@H](CC(C)C)NC(=O)[C@H]([C@@H](C)O)NC1=O	HTT-HAP40 complex	differential scanning fluorimetry	–	up to 10 µM	–	ΔTm	no effect
CC[C@H]1OC(=O)[C@H](C)[C@@H](OC(=O)CC2CCCCC2)[C@H](C)[C@@H](O[C@@H]2O[C@H](C)C[C@H](N(C)C)[C@H]2O)[C@](C)(OC)C[C@@H](C)C(=O)[C@H](C)[C@@H](O)[C@]1(C)O	Escherichia coli ribosome	in vitro transcription-translation, inhibitor	–	–	–	IC50	800 nM
CC(C)=CCC/C(C)=C/CC/C(C)=C/Cc1c(O)cc(CO)c(C=O)c1O	StaI′ (Stachybotrys chartarum)	substrate	–	30 min, pH 7.5, 40 °C	–	Vmax	1.49 nmol/min/mg
C1=NCCCN=Cc2ccc([nH]2)-c2nc3ccccc3nc2-c2ccc1[nH]2	human ACTN3 291-bp linear dsDNA	high-resolution melt	–	212 nM	–	melting temperature	83 °C
c1ccc(-c2n[nH]cc2-c2ccnc3ccccc23)nc1	CDC5 (Candida albicans)	kinase binding, MIB/MS competition	Candida albicans lysate	1 µM	relative to: DMSO	log2 fold change	0.07
C=CC(=O)Nc1cccc(Cn2ncc3cnc(Nc4cnn(CCOC)c4)nc32)c1	AXL human	binding, KINOMEscan	–	100 nM	lower = stronger binding	percent of control	100%
C1=[N+]2CCC[N+]3=Cc4ccc5[n]4[Au-]23[n]2c1ccc2-c1nc2ccccc2nc1-5.F[P-](F)(F)(F)(F)F	human ACTN3 291-bp linear dsDNA	high-resolution melt	–	408 nM	–	melting temperature	83.3 °C
CC[C@H]1OC(=O)[C@H](C)C(=O)[C@H](C)[C@@H](O[C@@H]2O[C@H](C)C[C@H](N(C)C)[C@H]2O)[C@](C)(OC)C[C@@H](C)C(=O)[C@H](C)[C@H]2N(CCCCn3cnc(-c4cccnc4)c3)C(=O)O[C@]12C	Escherichia coli ribosome	in vitro transcription-translation, inhibitor	–	–	–	IC50	400 nM
Nc1ncc(-c2cc(-c3cnn(CC(F)(F)F)c3)ncc2F)nc1C(=O)NC1CNCC(F)C1 (centres unmarked)	LTK	KINOMEscan	–	1 µM	relative to: DMSO control	remaining binding	100%
CC(=O)c1cnc(N)nc1N1CC[C@H]1c1nn2ccc(Cl)c2c(=O)n1-c1ccccc1	somatostatin receptor	radioligand binding, agonist	–	10 µM	–	inhibition	15%
Cc1ncsc1-c1ccc(C(C)NC(=O)C2CC(O)CN2C(=O)C(NC(=O)CCCCCCCCCCN2CCCC(Nc3ncc(Cl)c(Nc4ccccc4S(=O)(=O)C(C)C)n3)C2)C(C)(C)C)cc1 (centres unmarked)	22Rv1	RNA-seq, measured: ZNF252P	–	concentration not given	relative to: DMSO	log2 fold change	-1.36
CN1CCCNC(=O)CC2(CCCCC2)CC(=O)NCCCN(C)CCCNc2cccc3c2C(=O)c2cccc(c2C3=O)NCCC1	telomeric G-quadruplex DNA	DNA thermal stabilisation, CD melting	–	concentration not given, pH 7.4, added: 100 mM KCl	–	ΔTm	2.8 ± 1.3 °C
NCCOc1cc(NC(=O)c2cc(Cl)cc(C(=O)Nc3cc(OCCN)c4ccccc4n3)n2)nc2ccccc12	c-kit1 G-quadruplex DNA	FRET melting	–	1 µM, pH 7.4, added: 60 mM potassium	–	ΔTm	33.3 ± 0.9 K
Cn1ccc2cc(-n3c(=O)[nH]c4sc5c(c4c3=O)CCCC5)ccc21	imidazoline I2 receptor rat	binding, radioligand binding	–	10 µM, central	–	inhibition	-21%
CC[C@H]1OC(=O)[C@H](C)[C@@H](OC(=O)Cc2ccc(N(C)C)cc2)[C@H](C)[C@@H](O[C@@H]2O[C@H](C)C[C@H](N(C)C)[C@H]2O)[C@](C)(OC)C[C@@H](C)C(=O)[C@H](C)[C@@H](O)[C@]1(C)O	Escherichia coli ribosome	in vitro transcription-translation, inhibitor	–	–	–	IC50	860 nM
Cc1nn(-c2cccc(N)c2)c(=O)c2cnc(Nc3ccc(N4CCNCC4)cc3)nc12	Serine/threonine-protein kinase PLK2 (PLK2, Homo sapiens, UniProt Q9NYY3)	enzyme activity, inhibitor	–	–	–	IC50	> 10000 nM
CN1CCCNC(=O)CCC(=O)NCCCN(C)CCCNc2cccc3c2C(=O)c2cccc(c2C3=O)NCCC1	telomeric G-quadruplex DNA	DNA binding, UV-Vis titration	–	–	relative to: Ka telomeric G1 over double-stranded DNA	selectivity ratio	1800

Compound	target or system	test	system	conditions	scale	measurement	result
Fc1ccc(Nc2nc(NC3CCCCC3)c3cc(C(F)(F)F)ccc3n2)cc1F	β2AR/β1AR TM2 chimera	β-arrestin2 recruitment, antagonist, BRET	–	–	relative to: isoprenaline maximal response	maximal inhibition	1%
CC1(C)C[N+]2=Cc3ccc4[n]3[Au-]23[n]2c(ccc2-c2nc5ccccc5nc2-4)C=[N+]3C1.F[P-](F)(F)(F)(F)F	human ACTN3 291-bp linear dsDNA	high-resolution melt	–	404 nM	–	melting temperature	83.4 °C
Nc1nc2nn[nH]c2c(=O)[nH]1	Trypanosoma cruzi	reporter mRNA translation, inhibitor, measured: Renilla luciferase mRNA	cell-free extract	concentration not given, test 1	relative to: positive over negative control	translation activity	77.6%
CC(C)OCCOCc1ccc(OCC(O)CN(N=O)C(C)C)cc1 (centres unmarked)	Salmonella typhimurium	Ames test	TA1537	50 µg/plate, 30 % hamster S9	relative to: solvent control	revertant fold increase	0.8 fold
C=CC(=O)N1[C@@H](c2ccc3c(c2)OCO3)c2[nH]c3ccccc3c2C[C@H]1C(=O)N1CCN(C)CC1	human cyclin E1 wild type-3xFLAG:CDK2	co-IP with TMT proteomics, measured: HSPA9	–	concentration not given, P38646	relative to: wild type DMSO	relative co-enrichment	88%
CC[C@H]1OC(=O)[C@H](C)[C@@H](OC(=O)Cc2cccc([N+](=O)[O-])c2)[C@H](C)[C@@H](O[C@@H]2O[C@H](C)C[C@H](N(C)C)[C@H]2O)[C@](C)(OC)C[C@@H](C)C(=O)[C@H](C)[C@@H](O)[C@]1(C)O	Escherichia coli ribosome	in vitro transcription-translation, inhibitor	–	–	–	IC50	180 nM
Fc1ccc(Nc2nc(NC3CCCCC3)c3ccccc3n2)cc1F	β2AR/β1AR TM2 chimera	β-arrestin2 recruitment, antagonist, BRET	–	–	relative to: isoprenaline maximal response	maximal inhibition	0.8%
CCCC[C@H](NC(C)=O)C(=O)N[C@@H](CO)C(=O)N[C@H](C(=O)N1CCC[C@H]1C(=O)N[C@]1(C)CCCCCCC=CCCC[C@@](C)(C(=O)N[C@@H](Cc2ccccc2)C(=O)N[C@@H](CCCCN)C(=O)N[C@@H](CCCNC(=N)N)C(=O)N[C@@H](CC(C)C)C(=O)N[C@@H](CCC(N)=O)C(N)=O)NC(=O)[C@H](CCCNC(=N)N)NC(=O)[C@H](CCCC)NC(=O)[C@H](CC(C)C)NC(=O)[C@H](CCCNC(=N)N)NC(=O)[C@H](CCCNC(=N)N)NC(=O)[C@H](CCCNC(=N)N)NC1=O)[C@@H](C)O	proteinase K	LC-MS	–	25 µM, 369.1 min, pH 7.4	–	remaining peptide	52%
CC[C@H]1OC(=O)[C@H](C)[C@@H](OC(=O)Cc2ccccc2[N+](=O)[O-])[C@H](C)[C@@H](O[C@@H]2O[C@H](C)C[C@H](N(C)C)[C@H]2O)[C@](C)(OC)C[C@@H](C)C(=O)[C@H](C)[C@@H](O)[C@]1(C)O	Escherichia coli ribosome	in vitro transcription-translation, inhibitor	–	–	–	IC50	150 nM
CNC(=O)C1CCCN(C(=O)C2CC3CCC2N3C(=O)[C@@H]2C[C@@H](O)CN2C(=O)NCc2cccc(Cl)c2F)C1 (mixture of isomers)	Cytochrome P450 2B6 (CYP2B6, Homo sapiens, UniProt P20813)	preincubation with NADPH	human	50 µM	relative to: negative control	remaining activity	108% and 96.6% and 101%
CNS(=O)(=O)Nc1nccc(Cc2c(C)c3ccc(Oc4ncccc4F)cc3oc2=O)c1F	RL95-2	cell viability	–	7 days	–	IC50	5.04 nM
C=C(NC(=O)c1csc(-c2cccnc2)n1)C(=O)NC(=C)C(=O)OC	human PRX1 C71S/C83S/C173S	MALDI-TOF	–	200 µM, pH 8	–	protein forming monoadduct	> 95%
CC(=O)NCCCN(C)CCCNc1cccc2c1C(=O)c1cccc(NCCCN(C)CCCNC(C)=O)c1C2=O	telomeric G-quadruplex DNA	DNA thermal stabilisation, CD melting	–	concentration not given, pH 7.4, added: 100 mM NaCl	–	ΔTm	< 0.5 °C
CC(C)(CO)Cc1cn(C2CCCN(C(=O)c3ccc4c(c3)CCOC4(C)C)CC2)nn1 (centres unmarked)	FSP1 L323A	resorufin formation, inhibitor	–	added: NADH, resazurin	–	IC50	no inhibition
C1=[N+]2CCCC[N+]3=Cc4ccc5[n]4[Au-]23[n]2c1ccc2-c1nc2ccccc2nc1-5.F[P-](F)(F)(F)(F)F	human ACTN3 291-bp linear dsDNA	high-resolution melt	–	10.4 µM	–	melting temperature	84.8 °C
CCC(=O)N(C)c1ccc(Cl)c(Cl)c1	GABA-gated chloride channel	radioligand binding	–	10 µM	–	inhibition	< 10%
COC1CN([C@H]2CC[C@H]([C@@]3(C)Oc4c(Cl)cc(C(=O)NCc5c(SC)cc(C)[nH]c5=O)c(C)c4O3)CC2)C1	–	RNA-seq, measured: RELN mouse homolog	mouse, HT-1376 xenograft, whole blood	dose not given	relative to: vehicle	log2 fold change	1.71

A few entries again:
Compound	target or system	test	system	conditions	scale	measurement	result
C=CC(=O)Nc1cccc(Cn2ncc3cnc(Nc4cnn(CCOC)c4)nc32)c1	AXL human	binding, KINOMEscan	–	100 nM	lower = stronger binding	percent of control	100%
C1=[N+]2CCC[N+]3=Cc4ccc5[n]4[Au-]23[n]2c1ccc2-c1nc2ccccc2nc1-5.F[P-](F)(F)(F)(F)F	human ACTN3 291-bp linear dsDNA	high-resolution melt	–	408 nM	–	melting temperature	83.3 °C
CC[C@H]1OC(=O)[C@H](C)C(=O)[C@H](C)[C@@H](O[C@@H]2O[C@H](C)C[C@H](N(C)C)[C@H]2O)[C@](C)(OC)C[C@@H](C)C(=O)[C@H](C)[C@H]2N(CCCCn3cnc(-c4cccnc4)c3)C(=O)O[C@]12C	Escherichia coli ribosome	in vitro transcription-translation, inhibitor	–	–	–	IC50	400 nM
Nc1ncc(-c2cc(-c3cnn(CC(F)(F)F)c3)ncc2F)nc1C(=O)NC1CNCC(F)C1 (centres unmarked)	LTK	KINOMEscan	–	1 µM	relative to: DMSO control	remaining binding	100%
CC(=O)c1cnc(N)nc1N1CC[C@H]1c1nn2ccc(Cl)c2c(=O)n1-c1ccccc1	somatostatin receptor	radioligand binding, agonist	–	10 µM	–	inhibition	15%
Cc1ncsc1-c1ccc(C(C)NC(=O)C2CC(O)CN2C(=O)C(NC(=O)CCCCCCCCCCN2CCCC(Nc3ncc(Cl)c(Nc4ccccc4S(=O)(=O)C(C)C)n3)C2)C(C)(C)C)cc1 (centres unmarked)	22Rv1	RNA-seq, measured: ZNF252P	–	concentration not given	relative to: DMSO	log2 fold change	-1.36
